Experimental data gathered from unrelated publications.
Each line is one published result; not all experiments were run side by side. Values joined by “and” are separate records of one study, mostly repeats; a detail may differ. ± gives the spread as reported.
CTSB: Cathepsin B (CTSB, Homo sapiens, UniProt P07858)
DRD5: D(1B) dopamine receptor (DRD5, Homo sapiens, UniProt P21918)
Chain of UniProt P21918 (whole entry, looked up): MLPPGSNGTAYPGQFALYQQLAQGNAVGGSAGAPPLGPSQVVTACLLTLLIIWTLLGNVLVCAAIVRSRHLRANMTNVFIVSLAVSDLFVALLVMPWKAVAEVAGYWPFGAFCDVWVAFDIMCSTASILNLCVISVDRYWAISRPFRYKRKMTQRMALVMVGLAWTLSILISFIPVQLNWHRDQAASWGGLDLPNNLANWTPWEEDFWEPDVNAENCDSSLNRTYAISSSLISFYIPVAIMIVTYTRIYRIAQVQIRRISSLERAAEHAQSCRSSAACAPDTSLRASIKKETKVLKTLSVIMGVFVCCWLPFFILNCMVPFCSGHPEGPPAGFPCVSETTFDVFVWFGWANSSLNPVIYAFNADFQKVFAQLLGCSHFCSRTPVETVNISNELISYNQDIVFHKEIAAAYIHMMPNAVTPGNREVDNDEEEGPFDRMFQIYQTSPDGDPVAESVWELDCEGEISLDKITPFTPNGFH
AGER: Advanced glycosylation end product-specific receptor (AGER, Homo sapiens, UniProt Q15109)
Chain of UniProt Q15109 (whole entry, looked up): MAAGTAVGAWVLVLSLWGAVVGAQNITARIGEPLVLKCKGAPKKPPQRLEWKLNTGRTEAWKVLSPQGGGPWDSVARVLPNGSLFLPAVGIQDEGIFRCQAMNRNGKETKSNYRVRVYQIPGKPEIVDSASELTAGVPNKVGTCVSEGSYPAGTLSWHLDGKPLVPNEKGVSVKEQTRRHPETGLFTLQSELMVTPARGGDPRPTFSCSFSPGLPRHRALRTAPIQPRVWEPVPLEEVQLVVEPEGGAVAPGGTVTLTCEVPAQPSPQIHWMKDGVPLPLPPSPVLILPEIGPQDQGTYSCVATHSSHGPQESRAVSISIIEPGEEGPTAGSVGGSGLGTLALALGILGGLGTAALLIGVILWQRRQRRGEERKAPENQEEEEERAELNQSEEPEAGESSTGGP
JAK2: Tyrosine-protein kinase JAK2 (JAK2, Homo sapiens, UniProt O60674)
Chain of UniProt O60674 (whole entry, looked up): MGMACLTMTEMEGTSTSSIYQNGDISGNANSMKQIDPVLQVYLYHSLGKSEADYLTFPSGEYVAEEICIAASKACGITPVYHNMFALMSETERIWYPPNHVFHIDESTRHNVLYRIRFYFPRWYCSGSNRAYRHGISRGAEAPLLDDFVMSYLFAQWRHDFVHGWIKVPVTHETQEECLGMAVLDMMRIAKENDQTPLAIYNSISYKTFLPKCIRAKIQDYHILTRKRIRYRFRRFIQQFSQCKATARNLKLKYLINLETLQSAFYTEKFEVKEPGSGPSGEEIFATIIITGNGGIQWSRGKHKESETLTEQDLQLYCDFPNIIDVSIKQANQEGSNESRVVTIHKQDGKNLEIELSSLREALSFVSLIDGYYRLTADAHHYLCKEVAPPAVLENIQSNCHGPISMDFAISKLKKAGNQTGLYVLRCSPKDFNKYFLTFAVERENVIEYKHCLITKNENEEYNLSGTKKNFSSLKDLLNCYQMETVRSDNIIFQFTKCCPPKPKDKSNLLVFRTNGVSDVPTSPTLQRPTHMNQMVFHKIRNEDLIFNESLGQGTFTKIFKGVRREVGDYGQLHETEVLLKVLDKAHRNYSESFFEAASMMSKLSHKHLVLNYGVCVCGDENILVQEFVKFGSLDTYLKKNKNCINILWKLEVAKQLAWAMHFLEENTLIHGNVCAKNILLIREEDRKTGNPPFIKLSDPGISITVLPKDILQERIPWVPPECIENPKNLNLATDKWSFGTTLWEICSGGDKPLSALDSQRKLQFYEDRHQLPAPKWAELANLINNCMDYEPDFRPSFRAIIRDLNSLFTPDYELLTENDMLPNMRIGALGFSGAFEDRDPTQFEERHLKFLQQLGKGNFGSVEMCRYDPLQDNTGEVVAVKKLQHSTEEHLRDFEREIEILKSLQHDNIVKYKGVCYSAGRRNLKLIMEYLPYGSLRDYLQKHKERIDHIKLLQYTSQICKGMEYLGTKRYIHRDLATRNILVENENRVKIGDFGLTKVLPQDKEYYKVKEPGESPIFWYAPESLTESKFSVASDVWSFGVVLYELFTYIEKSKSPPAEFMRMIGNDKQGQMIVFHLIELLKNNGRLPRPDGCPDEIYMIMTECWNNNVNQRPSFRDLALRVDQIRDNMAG
SRD5A1: 3-oxo-5-alpha-steroid 4-dehydrogenase 1 (SRD5A1, Homo sapiens, UniProt P18405)
Chain of UniProt P18405 (whole entry, looked up): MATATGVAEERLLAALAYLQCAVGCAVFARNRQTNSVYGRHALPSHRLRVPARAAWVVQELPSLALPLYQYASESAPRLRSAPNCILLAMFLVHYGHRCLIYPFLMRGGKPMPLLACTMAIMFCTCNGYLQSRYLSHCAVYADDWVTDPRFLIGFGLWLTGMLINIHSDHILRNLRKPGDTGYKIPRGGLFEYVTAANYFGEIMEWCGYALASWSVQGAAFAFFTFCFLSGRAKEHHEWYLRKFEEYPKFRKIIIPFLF
Maoa: Amine oxidase [flavin-containing] A (Maoa, Rattus norvegicus, UniProt P21396)
Chain of UniProt P21396 (whole entry, looked up): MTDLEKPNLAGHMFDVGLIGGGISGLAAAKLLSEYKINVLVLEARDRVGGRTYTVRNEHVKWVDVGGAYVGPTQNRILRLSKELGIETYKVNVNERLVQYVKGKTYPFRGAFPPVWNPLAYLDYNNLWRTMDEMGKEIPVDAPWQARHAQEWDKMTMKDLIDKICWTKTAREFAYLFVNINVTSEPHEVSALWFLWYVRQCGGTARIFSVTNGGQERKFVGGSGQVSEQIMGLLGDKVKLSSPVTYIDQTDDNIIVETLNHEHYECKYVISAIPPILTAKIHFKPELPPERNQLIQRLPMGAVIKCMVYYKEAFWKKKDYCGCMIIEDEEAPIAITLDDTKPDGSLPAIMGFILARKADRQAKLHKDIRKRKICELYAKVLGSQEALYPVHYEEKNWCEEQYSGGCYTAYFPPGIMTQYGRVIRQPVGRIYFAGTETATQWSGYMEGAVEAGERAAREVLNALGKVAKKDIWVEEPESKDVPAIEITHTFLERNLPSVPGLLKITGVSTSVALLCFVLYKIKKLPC
SIRT2: NAD-dependent protein deacetylase sirtuin-2 (SIRT2, Homo sapiens, UniProt Q8IXJ6)
Chain of UniProt Q8IXJ6 (whole entry, looked up): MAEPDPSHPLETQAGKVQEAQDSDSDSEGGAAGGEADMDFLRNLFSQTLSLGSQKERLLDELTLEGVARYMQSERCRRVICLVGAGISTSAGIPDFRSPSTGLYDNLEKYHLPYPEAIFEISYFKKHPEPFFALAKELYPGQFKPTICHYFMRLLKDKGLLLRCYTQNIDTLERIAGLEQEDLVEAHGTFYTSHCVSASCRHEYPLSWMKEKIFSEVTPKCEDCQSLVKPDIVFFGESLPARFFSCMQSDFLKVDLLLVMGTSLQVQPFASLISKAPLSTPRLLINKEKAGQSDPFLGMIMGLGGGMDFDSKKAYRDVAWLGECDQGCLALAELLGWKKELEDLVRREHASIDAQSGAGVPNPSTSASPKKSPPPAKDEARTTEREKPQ
DNMT3B with DNMT3L: DNA (cytosine-5)-methyltransferase 3B, with DNMT3L (DNMT3B, Homo sapiens, UniProt Q9UBC3)
NR3C1: Glucocorticoid receptor (NR3C1, Homo sapiens, UniProt P04150)
Chain of UniProt P04150 (whole entry, looked up): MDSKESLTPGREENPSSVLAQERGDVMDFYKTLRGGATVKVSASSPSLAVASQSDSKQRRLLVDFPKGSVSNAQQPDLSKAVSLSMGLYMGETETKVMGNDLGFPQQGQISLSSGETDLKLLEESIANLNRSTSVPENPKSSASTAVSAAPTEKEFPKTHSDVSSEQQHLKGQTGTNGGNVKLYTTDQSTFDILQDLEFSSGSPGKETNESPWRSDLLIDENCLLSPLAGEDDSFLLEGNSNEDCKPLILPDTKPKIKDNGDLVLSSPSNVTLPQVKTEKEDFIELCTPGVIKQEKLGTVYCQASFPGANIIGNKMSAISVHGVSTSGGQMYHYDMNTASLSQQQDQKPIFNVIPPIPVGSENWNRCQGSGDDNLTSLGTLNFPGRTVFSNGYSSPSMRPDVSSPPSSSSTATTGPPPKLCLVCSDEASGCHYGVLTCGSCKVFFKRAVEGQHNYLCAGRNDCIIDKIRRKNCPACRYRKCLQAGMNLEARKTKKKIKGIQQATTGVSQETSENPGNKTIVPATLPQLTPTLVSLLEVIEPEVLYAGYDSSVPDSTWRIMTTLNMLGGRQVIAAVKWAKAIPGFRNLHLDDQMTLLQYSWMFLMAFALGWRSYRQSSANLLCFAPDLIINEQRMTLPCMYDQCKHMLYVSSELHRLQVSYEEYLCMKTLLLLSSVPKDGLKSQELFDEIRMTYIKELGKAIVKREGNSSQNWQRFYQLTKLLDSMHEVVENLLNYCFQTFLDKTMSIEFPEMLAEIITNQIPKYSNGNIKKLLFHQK
ESR1: Estrogen receptor (ESR1, Homo sapiens, UniProt P03372)
Chain of UniProt P03372 (whole entry, looked up): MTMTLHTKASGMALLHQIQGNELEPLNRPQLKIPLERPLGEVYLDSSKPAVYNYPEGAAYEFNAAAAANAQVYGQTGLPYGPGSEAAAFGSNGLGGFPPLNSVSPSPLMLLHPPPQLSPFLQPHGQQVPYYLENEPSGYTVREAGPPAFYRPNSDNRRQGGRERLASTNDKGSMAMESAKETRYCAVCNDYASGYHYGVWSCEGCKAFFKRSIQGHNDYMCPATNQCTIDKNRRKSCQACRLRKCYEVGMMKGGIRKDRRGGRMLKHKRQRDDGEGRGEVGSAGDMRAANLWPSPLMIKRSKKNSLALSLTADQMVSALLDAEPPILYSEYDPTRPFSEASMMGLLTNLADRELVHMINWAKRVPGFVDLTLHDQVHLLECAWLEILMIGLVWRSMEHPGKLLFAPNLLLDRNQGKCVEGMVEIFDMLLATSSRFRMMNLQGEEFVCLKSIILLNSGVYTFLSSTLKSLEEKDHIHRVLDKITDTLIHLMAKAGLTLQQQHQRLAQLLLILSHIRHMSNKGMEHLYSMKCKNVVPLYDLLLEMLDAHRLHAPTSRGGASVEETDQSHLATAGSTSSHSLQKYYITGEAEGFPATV
Htr1b: 5-hydroxytryptamine receptor 1B (Htr1b, Rattus norvegicus, UniProt P28564)
Chain of UniProt P28564 (whole entry, looked up): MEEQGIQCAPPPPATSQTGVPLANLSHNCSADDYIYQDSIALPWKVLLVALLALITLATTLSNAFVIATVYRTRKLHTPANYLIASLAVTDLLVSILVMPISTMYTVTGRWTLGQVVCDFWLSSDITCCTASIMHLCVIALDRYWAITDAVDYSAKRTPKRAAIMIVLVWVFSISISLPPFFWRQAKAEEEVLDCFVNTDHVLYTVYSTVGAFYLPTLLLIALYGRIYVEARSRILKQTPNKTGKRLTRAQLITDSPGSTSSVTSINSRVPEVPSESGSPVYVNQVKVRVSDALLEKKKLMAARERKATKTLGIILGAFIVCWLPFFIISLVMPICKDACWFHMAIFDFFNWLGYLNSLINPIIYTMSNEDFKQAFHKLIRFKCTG

SMILES | target | assay | system | setting | inhibition
O=C1CO[C@H](CNC(=O)C2(c3ccc(Cl)cc3)CC2)CN1C1Cc2ccccc2C1 | CCR1 (Homo sapiens, UniProt P32246) | β-arrestin recruitment, antagonist | – | 1 µM | 4%
Cc1cccc(O[C@H]2CCC[C@@H](C(C)CNCc3ccncc3)C2)c1 (relative stereo) | TSSK2 (Homo sapiens, UniProt Q96PF2) | enzyme activity, inhibitor | – | 1 µM | 1%
CC(=O)N(C)Cc1cccc(-c2cc3c(c(C(F)(F)F)c2)CCCC3N(C)C(=O)COC[C@@H]2CCNC[C@@H]2F)c1 (mixture of isomers) | Translation initiation factor eIF2B subunit beta/Translation initiation factor eIF2B subunit delta (Homo sapiens, UniProt P49770+Q9UI10) | ligand displacement, TR-FRET | – | 100 µM | 76%
Cc1ccc(N(O)/N=N/c2ccc(S(=O)(=O)Nc3nccs3)cc2)cc1 | α-glucosidase, rat intestine | enzyme activity | – | 120 µg/mL, with: 4-nitrophenyl α-D-glucopyranoside | 22.5 ± 0.05%
CC(C)NC(=O)[C@H](CCc1ccccc1)NC(=O)[C@H](CC(=O)NCC(C)(C)C)NC(=O)CCc1ccccc1 | CTSB | enzyme activity, inhibitor | – | 100 µM | -8%
CC(C)Cn1c(SCC(=O)N2CCc3ccccc3C2)nc2cc(Cl)ccc2c1=O | DRD5 | ligand displacement, radioligand | – | 10 µM | -15%
CC1Cc2ccccc2N1C(=O)CN1CCN(Cc2ccccc2)CC1 (stereo not drawn) | DRD5 | radioligand binding | – | concentration not given, with: [3H]SCH23390 | 8.1%
C=CC(=O)Nc1cccc(-c2cnc3[nH]cc(C(=O)NC(C)(C)C)c3n2)c1 | CK1 | kinase activity | – | 0.1 µM | 8%
O=C(O)Cc1ccccc1CC(=O)O | Signal transducer and activator of transcription 5A, SH2 (Homo sapiens, UniProt P42229) | ligand displacement, FP | – | 100 µM | -3%
CCCCCNC(=O)N1N=C(c2ccc(NC(=O)Nc3ccc(Cl)cc3)cc2)CC1c1ccc(Cl)cc1 (stereo not drawn) | AGER | – | – | 100 µM | 19%
C#CCOC(=O)[C@]1(C)C=C(C(=O)OC(C)(C)C)C(=O)CC1 | MAPK14 (Homo sapiens, UniProt Q16539) | kinase activity, inhibitor, Kinase-Glo luminescence | – | 10 µM | no inhibition
Cc1cnc2nc1Nc1cc(F)cc(c1)COC/C=C/COCc1cc(ccc1OCCN1CCCC1)N2 | JAK2 | inhibitor, Z'-LYTE kinase | – | 4.115 nM | 49.2% and 38.6% and 39.5%
COc1cc(/C=C/C(=O)Oc2cc(C(F)(F)F)ccc2C(F)(F)F)ccc1O | SRD5A1 | enzyme activity in cells, inhibitor | HaCaT | 10 µM | 58.2%
COc1ccc(S(=O)(=O)N2CCc3ccccc3C2)cc1N1CCN(C(=O)c2ccc(F)cc2C(F)(F)F)CC1 | Maoa | ligand displacement, radioligand | – | 1 µM | 11.3%
COc1ccc(NC(=O)Nc2ccc(C3=NNC(c4ccc(Br)cc4)C3)cc2)cc1 (stereo not drawn) | AGER | – | – | 100 µM | 12%
CN(C)c1ncnc2c1ncn2[C@@H]1O[C@H](CCl)[C@@H](NC(=O)[C@H](CSC23CC4CC(CC(C4)C2)C3)NC(=O)OC(C)(C)C)[C@H]1O | Aminopeptidase N (ANPEP, Homo sapiens, UniProt P15144) | enzyme activity, inhibitor, fluorescence | – | 10 µM | 0%
O=C(Nc1ccc(F)cc1)Nc1ccc(C2CC(c3ccc(Cl)cc3)=NN2)cc1 (stereo not drawn) | AGER | – | – | 100 µM | 35%
CCn1cc(C(=O)O)c(=O)c2c(N)c(F)c(NC3CCCCC3)cc21 | TSSK6 (Homo sapiens, UniProt Q9BXA6) | kinase activity | – | 0.1 µM, with: ATP at Km | 2.5%
COc1ccc2nc(C)ccc2c1Nc1sn(C)c(=O)c1C#N | CD38 (Homo sapiens, UniProt P28907) | enzyme activity, inhibitor | – | 10 µM | 0%
C=CC(=O)N1Cc2nc(-c3cc(-c4cc(Cl)cnc4Cl)c(F)cc3F)n(-c3ccncn3)c2C1 | 5'-AMP-activated protein kinase catalytic subunit alpha-2, with beta2 gamma3 (PRKAA2, Homo sapiens, UniProt P54646) | kinome panel | – | 1 µM | 10%
Cc1cnc2nc1Nc1cccc(c1)COCc1cc(ccc1OCCN1CCOCC1)N2 | JAK2 | inhibitor, Z'-LYTE kinase | – | 0.1524 nM | 0.101% and 0.487% and 16.3%
O=C(Nc1ccc(Cl)cc1)Nc1ccc(C2=NNC(c3ccc(Br)cc3)C2)cc1 (stereo not drawn) | AGER | – | – | 100 µM | 18%
O=C1c2sc(-c3ccc(N4CCC(F)C4)nc3F)nc2CCN1c1cccnc1 (stereo not drawn) | Cacna1b (Rattus norvegicus, UniProt Q02294) | ligand displacement, radioligand | – | 1 µM | 1%
Brc1ccccc1-c1nnc(CSc2nnnn2-c2ccccc2)o1 | ADRA2A (Homo sapiens, UniProt P08913) | ligand displacement, radioligand | – | 10 µM | 4%

SMILES | target | assay | system | setting | inhibition
O=C(O)CCNC(=S)NCCCC[C@H](NS(=O)(=O)c1cccc(F)c1)C(=O)N[C@@H](Cc1c[nH]c2ccccc12)C(=O)NC1CCC1 | SIRT2 | enzyme activity, inhibitor | – | 10 µM | 6%
CCn1cc(-c2cccc(C(F)(F)F)c2)c2sc(C(=N)NC3CCS(=O)(=O)CC3)cc2c1=O | BAZ2B (Homo sapiens, UniProt Q9UIF8) | binding, inhibitor, AlphaScreen | – | 1 µM | -89.6%
CN(C)C/C=C/C(=O)Nc1ccc2nc(NCCCCCN(C)C)nc(NCCCCCCN(C)C)c2c1 | DNMT3B with DNMT3L | enzyme activity | – | 10 µM | -30%
N=C(N)NCCCC(NC(=O)C(CC(=O)NO)Cc1ccc2ccccc2c1)C(=O)NC(Cc1c[nH]c2ccccc12)C(=O)NC(CCC(=O)O)C(N)=O (stereo not drawn) | ADAM17 (Homo sapiens, UniProt P78536) | – | – | 1 µM | 34%
C[Si](C)(C)C[C@H](CN)CC(=O)O | SSTR2 (Homo sapiens, UniProt P30874) | ligand displacement, radioligand | – | 250 µM | 4%
O=C1c2sc(-c3ccc(N4CCC(CO)CC4)nc3F)nc2CCN1c1cccnc1 | Maoa | ligand displacement, radioligand | – | 1 µM | 13%
Cc1cnc2nc1Nc1cccc(c1)COCCCCOCc1cc(ccc1OCCN1CCCC1)N2 | JAK2 | inhibitor, Z'-LYTE kinase | – | 123.5 nM | 35.5% and 41.9% and 42%
CCCCCCCCCCCCCC(=S)NCCCC[C@H](NC(=O)OCc1ccccc1)C(=O)Nc1ccccc1 | SIRT2 | enzyme activity, inhibitor | – | 100 µM | < 5%
CC(=O)C12NC(C)(C)CC1(C)C(=O)C1=C2c2c(c3c4n2C(C)(C)CC2=C4C4(CC(C)(C)NC(C)(C4)C2=O)CC3(C)C)C(=O)C(C)(C)N1 (single isomer, unassigned; (+)) | TRPC5 (Homo sapiens, UniProt Q9UL62) | ion current, antagonist, whole-cell patch clamp | HEK293T | 10 µM | 8.69 ± 0.06%
c1ccc(OC[C@H]2CN(CCN3CCc4ccccc43)CCO2)nc1 | DRD5 | radioligand binding | – | concentration not given, with: [3H]SCH23390 | 42.4%
COCC(=O)N1CCc2cc(-c3csc(NC(=O)c4cc(OC)cc(OC)c4)n3)ccc21 | NR3C1 | cell-free assay | – | 10 µM | -24%
COc1cc(/C=C/C(=O)Oc2cc(C(F)(F)F)ccc2C(F)(F)F)ccc1OC(C)=O | SRD5A1 | enzyme activity in cells, inhibitor | HaCaT | 25 µM | 13.5%
Cn1ccc2cc(-n3c(=O)[nH]c4sc5c(c4c3=O)CCCC5)ccc21 | ESR1 | cell-free assay, radioligand | – | 10 µM | 9%
CC(=O)Oc1ccc(/C=C/C(=O)Oc2ccc(C(F)(F)F)c(C(F)(F)F)c2)cc1OC(C)=O | SRD5A1 | enzyme activity in cells, inhibitor | HaCaT | 15 µM | 24.2%
C[Si]1(C[C@H](CN)CC(=O)O)CCCC1 | Htr1b | ligand displacement, radioligand | – | 70 µM | 3%
COc1ncc2nc(C)n(Cc3ncc(S(N)(=O)=O)cc3F)c2c1-c1ccccc1 | NR3C1 | antagonist, cell-based | – | 10 µM | 9.63%
COc1ccc(C[C@H](NC(=O)Cc2cccc(Oc3ccccc3)c2)C(=O)N[C@@H](Cc2c[nH]c3ccccc23)C(=O)NCc2ccc(C)cc2)cc1OC | CTSB | enzyme activity, inhibitor | – | 100 µM | 1%
O=C(Nc1ccc(F)cc1)Nc1ccc(C2=NNC(c3ccc(NC(=O)Nc4ccc(F)cc4)cc3)C2)cc1 (stereo not drawn) | AGER | – | – | 100 µM | 91%
COc1ccc(NC(=O)/C(=C/c2ccc(Cl)cc2Cl)Sc2ccc(OC)cc2)cc1 | AGER | AGE2-BSA binding, inhibitor, competitive ELISA | – | 100 µM, 60 min, with: AGE2-BSA | 0%
Cc1[nH]nc2c1N=C(c1ccccc1Cl)c1cnc(N3CCOCC3)cc1N2 | ESR1 | cell-free assay | – | 10 µM | 8%
C/C=C/C(=O)Nc1ccc2nc(NCCCCCN(C)C)nc(NCCCCCCN(C)C)c2c1 | DNMT3B with DNMT3L | enzyme activity | – | 50 µM | -21%
CN1CCN(Cc2ccc(-c3ccc(CO[C@H]4CCC[C@@H]4NC(=O)c4cc(-c5cnn(C)c5)cnc4N)cc3)cc2)CC1 | 5'-AMP-activated protein kinase catalytic subunit alpha-2, with beta2 gamma2 (PRKAA2, Homo sapiens, UniProt P54646) | SelectScreen kinase profiling | – | 0.1 µM | 4%
Cc1cnc2nc1Nc1cccc(c1)COC/C=C/COCc1cc(ccc1OCCN1CCOCC1)N2 | JAK2 | inhibitor, Z'-LYTE kinase | – | 15.62 nM | 93.1% and 92.9% and 94.2%
CCC(=O)N(C)c1ccc(Cl)c(Cl)c1 | Htr1b | ligand displacement, radioligand | – | 10 µM | < 10%

A few entries again:
SMILES | target | assay | system | setting | inhibition
Cc1cnc2nc1Nc1cccc(c1)COCCCCOCc1cc(ccc1OCCN1CCCC1)N2 | JAK2 | inhibitor, Z'-LYTE kinase | – | 123.5 nM | 35.5% and 41.9% and 42%
C[Si](C)(C)C[C@H](CN)CC(=O)O | SSTR2 (Homo sapiens, UniProt P30874) | ligand displacement, radioligand | – | 250 µM | 4%
Cc1cnc2nc1Nc1cc(F)cc(c1)COC/C=C/COCc1cc(ccc1OCCN1CCCC1)N2 | JAK2 | inhibitor, Z'-LYTE kinase | – | 4.115 nM | 49.2% and 38.6% and 39.5%
